Measurements of several laboratories.
Protocols differ between the studies behind these lines. Numbers after ± are the reported error.
Cell line: HeLa

SMILES	assay	conditions	quantity	value
Clc1nc(Cl)c2[nH]cnc2n1	splicing reporter, refers to: GLA	10 µM, 18 h	GFP/RFP ratio	0.3
CC(=O)N[C@@H](CS)C(=O)O	PI flow cytometry	concentration not given, 48 h	G1 phase cells	50.3 ± 1.1%
C[C@@H]1CC[C@@H]([C@](O)(CNCc2ccccc2)COCc2ccc(F)cc2)[C@H](OCc2ccc(F)cc2)C1	cell growth, inhibitor, MTT	72 h	IC50	1.34 µM
Clc1nc(NCc2ccco2)c2ccccc2n1	splicing reporter, refers to: GLA	10 µM, 18 h	GFP/RFP ratio	0.4
C[C@@H]1CC[C@@H]([C@@](C)(O)Cn2cnc3ccccc32)[C@H](OCc2ccccc2)C1	cell growth, inhibitor, MTT	72 h	IC50	6.46 µM
CN1CC[C@H](c2c(O)cc(O)c3c(=O)cc(-c4ccccc4Cl)oc23)[C@H](O)C1	RT-qPCR, refers to: cyclin A, Cdc2	10 nM, overnight	mRNA level	no effect
COc1ccc(NC(=S)N/N=C/c2cccc3cc4ccccc4nc23)cc1	PI flow cytometry	IC50, 48 h, together with: N-acetylcysteine	G2/M phase cells	13.3 ± 3.7%
C[C@@H]1CC[C@@H]([C@@](O)(CNCc2ccccc2)COCc2ccccc2)[C@H](OCc2ccccc2)C1	cell growth, inhibitor, MTT	72 h	IC50	2.27 µM
O=C(NC[C@H](O)CN1CCc2ccccc2C1)c1cc(NC2COC2)ncn1	co-immunoprecipitation, western blot, refers to: SNRNP200 with GFP-SART3	10 µM, 3 days	protein interaction	decreased

Excerpt of the above:
SMILES	assay	conditions	quantity	value
C[C@@H]1CC[C@@H]([C@@](C)(O)Cn2cnc3ccccc32)[C@H](OCc2ccccc2)C1	cell growth, inhibitor, MTT	72 h	IC50	6.46 µM
